Published values collected from several papers.
Protocols differ between the studies behind these lines. ± gives the spread as reported.
UniProt O60656, sequence (whole entry, looked up): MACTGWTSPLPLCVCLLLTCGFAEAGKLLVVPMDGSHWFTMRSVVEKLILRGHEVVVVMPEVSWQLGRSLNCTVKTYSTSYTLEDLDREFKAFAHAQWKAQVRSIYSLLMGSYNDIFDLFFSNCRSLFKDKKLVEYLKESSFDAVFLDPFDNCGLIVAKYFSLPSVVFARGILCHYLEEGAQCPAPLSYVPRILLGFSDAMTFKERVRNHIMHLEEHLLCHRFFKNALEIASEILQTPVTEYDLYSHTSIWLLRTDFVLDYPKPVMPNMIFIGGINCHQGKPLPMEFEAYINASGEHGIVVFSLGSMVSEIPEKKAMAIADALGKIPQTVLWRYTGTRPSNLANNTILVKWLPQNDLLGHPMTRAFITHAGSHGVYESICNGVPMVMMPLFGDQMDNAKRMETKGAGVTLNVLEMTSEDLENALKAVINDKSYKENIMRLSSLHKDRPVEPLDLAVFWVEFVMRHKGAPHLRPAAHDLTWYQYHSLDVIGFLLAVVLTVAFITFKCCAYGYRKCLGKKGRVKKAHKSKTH

Molecule | target or system | assay | system | conditions | how to read | measurement | result
Ac-DNCPFHYNP-NH2 (N-acetyl, C-amide) | mouse neutrophil elastase |  | peptide, wild type neutrophil lysate | 1.25 or 2.5 mM, 30 min preincubation, pH 8.0, 37 °C |  | elastase activity | no effect
benzalkonium chloride | dentin matrix metalloproteinases, human |  | acid-etched dentin | 0.5 % w/v, 60 s | relative to: untreated | inhibition | 31%
UGT1A9 (Homo sapiens, UniProt O60656) | COc1cccc2oc(-c3ccccc3)c(O)c(=O)c12 | steady-state kinetics |  | pH 7.4, 37 °C |  | Km | 0.082 µM
VDPRL | HPC4 antibody (mouse) | binding, yeast display flow cytometry | peptide | concentration not given, together with: 100 nM HPC4 |  | cells bound | 71.2%
KRRQTSMTDFYHSKRRLIFSGGSGGSGGSGGSGGSGGSKRRQTSMTDFYHSKRRLIFS (divalent) | PCNA trimer, human | complex formation, gel filtration |  | concentration not given, pH 7.2 |  | molecular weight | ~149 kDa
Cc1c2ccncc2c(C)c2c1[nH]c1ccc(OCCN(C)C)cc12 | PDGFR-β 3′-end G-quadruplex DNA | CD |  | concentration not given |  | binding stoichiometry | ~1 mol equiv
CC(C)(C)c1cc(C(C)(C)C)c(NC(=O)c2c[nH]c3ccccc3c2=O)cc1O | CFTR S549R human | short-circuit current, potentiator | CFBE | 14.44 µM, together with: forskolin 20 µM | relative to: PKA-activated wild type | CFTR activity | 35.6 ± 4.2%
Oc1cc(O)cc(/C=C/c2ccc(O)c(O)c2)c1 | human HDAC class I/II | enzyme activity, inhibitor, HDAC-Glo I/II | HCT-116 |  |  | IC50 | 4880 ± 330 nM
KTGPLGGTRRGRGPRGRKLPSKVASVEKIEEDDNTNKIEIFNNWNVSS | actin, rabbit skeletal muscle | pyrene actin polymerization | peptide | concentration not given, peptide without capping protein, together with: 1 µM actin, 20% pyrene | relative to: actin alone | relative polymerization rate | 0.98
CC(C(O)c1ccc(O)cc1)N1CCC(Cc2ccccc2)CC1 (stereo not drawn) | NMDA receptor | NMDA-evoked current, inhibitor, patch clamp | cultured hippocampal neurons | 3 µM, together with: 100 µM NMDA and 3 µM glycine | relative to: untreated | remaining activity | 30 ± 10%
Ac-DNCQYVYNV-NH2 (N-acetyl, C-amide) | mouse cathepsin G | inhibitor | peptide, wild type neutrophil lysate | 1.25 mM, 30 min preincubation, pH 8.0, 37 °C, together with: N-Suc-AAPF-pNA 1 mM |  | inhibition | 54%
O=CN/C=C/c1cc(O)ccc1O | native rod CNG channel | ion current, inhibitor, patch clamp | Ambystoma tigrinum, rod outer segment patch, inside-out | 100 µM, fully activated channels, together with: genistein 100 µM |  | genistein inhibition | decreased
Cc1ccc(N2C(=O)C(O)=C(C(=O)c3ccc(Cl)cc3)C2c2cccc(F)c2)cc1Br (stereo not drawn) | human uPAR | cell adhesion to vitronectin | HEK293 expressing uPAR | 25 µM, together with: uPA |  | inhibition | 60%
Nc1nc2c(nc(Br)n2[C@@H]2O[C@@H]3COP(=O)(O)O[C@H]3[C@H]2O)c(=O)[nH]1 | cGMP antibody | non-acetylated cGMP EIA |  |  |  | EC50 | 1.83 nM
Ac-DNCPYVPNA-NH2 (N-acetyl, C-amide) | mouse neutrophil elastase |  | wild type neutrophil lysate | 1.25 or 2.5 mM, 30 min preincubation, pH 8.0, 37 °C |  | elastase activity | no effect
Tumor necrosis factor alpha | potassium channels (human) | whole-cell patch clamp | A549 | concentration not given, holding potential -100 mV, together with: amiloride 10 to 100 µM, TEA 10 mM |  | TEA-sensitive potassium current share | 6.9 ± 1.8%
CCNc1nc(Cl)nc(NC(C)C)n1 | PDE4 (rat) | cAMP accumulation, inhibitor | primary pituitary cells | 37 °C |  | EC50 | 5000 to 6000 nM
EDQVDPRLIDGK | HPC4 antibody (mouse) | binding, yeast display flow cytometry | peptide | concentration not given, together with: 100 nM HPC4 |  | cells bound | 97.9%
Nc1nc2ccc(SC(F)(F)F)cc2s1 | MeAIB/glutamine transporter, rat | MeAIB uptake | hippocampal neurons, rat | 20 µM, together with: [14C]MeAIB 23.4 µM |  | inhibition | > 90%
C[C@@H]1C[C@H]2[C@@H]3CCC4=CC(=O)C=C[C@]4(C)[C@@]3(F)[C@@H](O)C[C@]2(C)[C@@]1(O)C(=O)CO | caspase-3 mouse | activity-based probe | mouse, thymus | intravenous, 50 nmol, probe 2 h before sacrifice, together with: dexamethasone 50 mg/kg intraperitoneal |  | onset time of caspase-3 activity | 6 h
human clusterin | amyloid beta 1-40 oligomers from aggregation |  |  | 10 to 20 nM, 21 °C |  | persistence of Aβ complexes | > 50 h
COc1ccc2c(c1)CC[C@@H]1[C@@H]2CC[C@]2(C)[C@@H](NCCCCCCN3C(=O)C=CC3=O)CC[C@@H]12 | human PLCβ |  | HEK-293T expressing B2 receptor | 2 µM, 1 h, together with: bradykinin 250 nM |  | PLCδ-PH-GFP translocation | 0.116
Cc1ccc2c(=O)c3cccc(CC(=O)O)c3oc2c1C | TBK1 | phosphorylation, inhibitor | THP-1 | up to 1 mM, 4 h, together with: c-di-GMP |  | activity | inactive
Nc1nc2c(ncn2[C@H]2C[C@@H]3OP(=O)(O)OC[C@H]3O2)c(=O)[nH]1 | cGMP antibody | non-acetylated cGMP EIA |  |  |  | EC50 | 5.28 nM
AAPSPLFVPGPLPQL | GPR15 Chrysemys picta | intracellular calcium, agonist, Fluo-4 fluorescence | peptide, CHO transfected with GPR15 |  |  | concentration for maximal response | 100 nM
CC1=C[C@H](O/C=C2/C(=O)O[C@@H]3c4ccccc4C[C@H]23)OC1=O | SMXL7-YFP (Arabidopsis thaliana) | confocal microscopy, refers to: nuclear SMXL7-YFP | Nicotiana benthamiana epidermal cells | 10 µM, 120 min, co-expressed AtD14-mCherry | relative to: mock | reduction of SMXL7-YFP level | ~50%
DPRLI | HPC4 antibody (mouse) | binding, yeast display flow cytometry | peptide | concentration not given, together with: 100 nM HPC4 |  | cells bound | 96.2%

Excerpt of the above:
Molecule | target or system | assay | system | conditions | how to read | measurement | result
CCNc1nc(Cl)nc(NC(C)C)n1 | PDE4 (rat) | cAMP accumulation, inhibitor | primary pituitary cells | 37 °C |  | EC50 | 5000 to 6000 nM
Nc1nc2c(nc(Br)n2[C@@H]2O[C@@H]3COP(=O)(O)O[C@H]3[C@H]2O)c(=O)[nH]1 | cGMP antibody | non-acetylated cGMP EIA |  |  |  | EC50 | 1.83 nM
